{"data": "Published values of several laboratories", "note": "Protocols differ between the studies behind these lines. ± marks the error that the study gave."}
{"Compound": "Cc1ccccc1-c1cc(N2CCNCC2)ncc1N(C)C(=O)C(C)(C)c1cc(C(F)(F)F)cc(C(F)(F)F)c1", "system": "healthy volunteers, plasma", "conditions": "oral, dose not given", "Cmax": "39.2 to 46.8 ng/mL"}
{"Compound": "CC(C)(Sc1cc[n+]([O-])cc1-c1ccc(C#N)c2ccccc12)C(=O)OC1OC(C(=O)O)C(O)C(O)C1O (stereo not drawn)", "system": "plasma", "conditions": "oral, 15 mg, normal renal function, fasted", "Cmax": "23.6 ng/mL"}
{"Compound": "CC(C)[C@H](NC(=O)CNC(=O)[C@H](CCC(N)=O)NC(=O)[C@H](C)N)C(=O)O", "system": "healthy volunteers, LPS endotoxaemia, plasma", "conditions": "intravenous, 45 mg/kg/h, 2 h infusion, geometric mean, with: LPS 2 ng/kg", "Cmax": "6030 ng/mL"}
{"Compound": "COc1cc(C)c(Cc2ccc(O)cc2)cc1[C@@H]1S[C@H](CO)[C@@H](O)[C@H](O)[C@H]1O", "system": "Japanese T2DM patients, plasma", "conditions": "5 mg luseogliflozin, day 1, once daily", "Cmax": "8.9 ± 1.22 ng/mL"}
{"Compound": "CONC(=O)/C=C/c1cccc(S(=O)(=O)Nc2ccccc2)c1", "system": "patients with normal liver function, plasma", "conditions": "intravenous, 400 mg/m^2 belinostat, single 30 min infusion, cycle 1 day -7, mean", "Cmax": "2100 ng/mL"}
{"Compound": "Cc1ccccc1-c1cc(N2CC[N+](C)([O-])CC2)ncc1N(C)C(=O)C(C)(C)c1cc(C(F)(F)F)cc(C(F)(F)F)c1", "system": "cancer patients, plasma", "conditions": "oral, dose not given, netupitant-palonosetron single dose, range of means", "Cmax": "215 to 361 ng/mL"}
{"Compound": "O=C(O)c1cccc(S(=O)(=O)Nc2ccccc2)c1", "system": "patients with severe liver dysfunction, plasma", "conditions": "intravenous, 400 mg/m^2 belinostat, single 30 min infusion, cycle 1 day -7, mean", "Cmax": "1880 ng/mL"}
{"Compound": "CC(C)(Sc1ccncc1-c1ccc(C#N)c2ccccc12)C(=O)OC1OC(C(=O)O)C(O)C(O)C1O (stereo not drawn)", "system": "plasma", "conditions": "oral, 15 mg, moderate renal impairment, fasted", "Cmax": "54.6 ng/mL"}
{"Compound": "CC[C@@H](C)[C@H]1NC(=O)[C@@H]([C@H](C)O)NC(=O)[C@@H](Cc2c[nH]cn2)NC(=O)CNC(=O)[C@@H](CCCNC(=N)N)NC(=O)CNC(=O)[C@@H](Cc2ccccc2)NC1=O", "system": "New Zealand white rabbit, female, vitreous", "conditions": "ocular, 0.5% eye drop", "Cmax": "~239 nM"}
{"note": "A few entries again:"}
{"Compound": "Cc1ccccc1-c1cc(N2CCNCC2)ncc1N(C)C(=O)C(C)(C)c1cc(C(F)(F)F)cc(C(F)(F)F)c1", "system": "healthy volunteers, plasma", "conditions": "oral, dose not given", "Cmax": "39.2 to 46.8 ng/mL"}
